Experimental data collected from several papers.
Values joined by “and” are separate records of one study, mostly repeats; a detail may differ. ± marks the error that the study gave.

For `COc1cc(C(=O)OCCCN2CCCN(CCCOC(=O)c3cc(OC)c(OC)c(OCc4ccc([N+](=O)[O-])cc4)c3)CC2)cc(OC)c1OC`, “duration of analgesic effect” read > 5 h (von Frey test; mouse, CFA inflammatory pain; intraplantar, 10 µg).
`CCCOC(=O)Cc1c(C)n(C(=O)c2ccc(Cl)cc2)c2ccc(OC)cc12`: “latency of nociceptive response” 10.5 ± 0.28 s (hot plate test; BALB/c mice; 50 mg/kg, 0 min).
`CC(C)CN(CC(C)C)C(=O)/C=C/C=C/c1ccc2c(c1)OCO2` gave a centre distance of 10.7 ± 1.1% (open field; C57BL/6N mice; ip, 0.3 mg/kg; reference: total distance).
`CC(=O)C1=C(C)NC(=O)NC1c1ccc(F)cc1F` (centres unmarked): “antioxidant potency ratio” ~2.9 fold and ~3 fold (DPPH radical scavenging; reference: gallic acid).
With `COC(=O)C1OC(Oc2c(-c3ccccc3)oc3cc(O)c(O)c(O)c3c2=O)C(O)C(O)C1O` (centres unmarked) the serum concentration was 90.6 pg/mL (ELISA, item: IL-1β; Balb/c mouse, serum; oral, 5 mg/kg, with: LPS).
`O=c1[nH]c2ccccc2n1CCCCCN1CCN(c2ccc(F)cc2)CC1` — result for “duration of antinociceptive effect”: > 70 min (tail immersion test; mouse; subcutaneous, 5 mg/kg).
`O=[N+]([O-])c1cccc(S(=O)(=O)NC[C@@H](O)[C@@H]2CCc3cc(F)ccc3O2)c1`: “dry granuloma weight” 78.4 ± 2.04 mg (rat, cotton pellet granuloma; oral, 100 mg/kg, 8 days).
For `COc1ccc(C2NC(=O)NC(C)=C2C(C)=O)cc1` (centres unmarked), “antioxidant potency ratio” read ~2 fold (DPPH radical scavenging; reference: gallic acid).
Under “c-Fos positive cells”, `CCCCCCCCCn1cc(C(N)(CO)CO)nn1` is recorded as “increased” (APP/PS1 mouse, dentate gyrus; dose not given).
`COC(=O)N1c2ccc3c(nc(Cc4ccccc4)n3[C@@H]3CCC[C@@H](C(=O)O)C3)c2CC[C@@H]1C` gave a responding models of 31% (mice, breast cancer PDX; oral, 50 mg/kg, 45 days, HER2+, TGI above 60%).
`COc1cc(Cn2ccc3cc(C(=O)NCC45CC6CC(CC(C6)C4)C5)ccc32)ccc1C(=O)NO` — result for GFAP-positive area: “decreased” (immunohistochemistry; 5xFAD mouse, brain; intraperitoneal, 10 mg/kg once daily, 2 months; reference: vehicle).
`COc1ccc2c(c1)c(CC(=O)OCOC(C)=O)c(C)n2C(=O)c1ccc(Cl)cc1`: “latency of nociceptive response” 9.53 ± 0.38 s (hot plate test; BALB/c mice; 100 mg/kg, 0 min).
The blood glucose of `COc1ccc(C2CC(c3ccc(C)cc3)=Nc3ccccc3S2)cc1` (centres unmarked) is reported as 123 ± 4.7 mg/dL (Wistar rat, STZ-induced diabetes; oral, 20 mg/kg once daily, day 21).
`CC(C)n1cnc(-c2ccc(F)cc2)c1-c1ncc(C(=O)Nc2ccc(N3CCN(C)CC3)cc2)[nH]1`: “change in FVC” -27 mL (IPF patients; 30 mg once daily, 12 weeks, mean; reference: baseline).
`CC[C@H]1[C@@H](O)[C@@H]2[C@H](CC[C@]3(C)[C@@H]([C@H](C)CCOS(=O)(=O)[O-])CC[C@@H]23)[C@@]2(C)CC[C@@H](O)C[C@@H]12.[Na+]` gave an inflammation score of 2.2 ± 0.2 (histology; ob/ob NASH mouse model, liver; oral, 3 mg/kg once daily, 8 weeks, scale 0 to 3; direction not given).
`CC(C)(C)OC(=O)N1CCC[C@H](O)[C@H]1CC(=O)Cn1cnc2cc(Br)c(Cl)cc2c1=O` (relative stereo): translation “inactive” (luciferase translation; rabbit reticulocyte lysate; concentration not given).
Under macrophage score, `CCCC[C@@H]1NC(=O)[C@H](Cc2ccc(O)cc2)NC(=O)[C@@H]2CCCN2C(=O)[C@H](CC(=O)O)NC(=O)[C@H](C)NC(=O)[C@H](Cc2ccccc2)NC(=O)[C@@H]2CSCCC(=O)N3CN(CN(C3)C(=O)CCSC[C@@H](C(=O)N[C@@H](C)C(N)=O)NC1=O)C(=O)CCSC[C@H](NC(C)=O)C(=O)N[C@@H](CC(C)(C)C)C(=O)N1CCC[C@H]1C(=O)N[C@@H](CCC(=O)O)C(=O)N[C@H](CCCCNC(=O)CCc1cn(CCOCCOCCOCCN(CCOCCOCCOCCC(=O)N[C@@H](C)C(=O)N[C@@H](CCCCNC(=N)N)C(=O)N[C@@H](CC(=O)O)C(=O)N[C@H]3CSCCC(=O)N4CN5CN(C4)C(=O)CCSC[C@H](NC(=O)[C@H](CC(C)C)NC(=O)[C@@H]4CCCN4C(=O)[C@H](CC(N)=O)NC(=O)[C@H](C(C)C)NC(=O)[C@H](CC(C)C)NC(=O)[C@@H]4C[C@@H](O)CN4C3=O)C(=O)N[C@@H](CC(C)C)C(=O)N[C@@H](Cc3c[nH]cn3)C(=O)N3CCC[C@H]3C(=O)N[C@H](CC(=O)O)C(=O)N[C@@H](Cc3c[nH]c4ccccc34)C(=O)N[C@@H](CCCCNC(=N)N)C(=O)N[C@H](C(N)=O)CSCCC5=O)CCOCCOCCOCCn3cc(CCC(=O)NCCCC[C@H]4NC(=O)[C@H](CCC(=O)O)NC(=O)[C@@H]5CCCN5C(=O)[C@H](CC(C)(C)C)NC(=O)[C@@H](NC(C)=O)CSCCC(=O)N5CN6CN(C5)C(=O)CCSC[C@H](NC(=O)[C@H](Cc5ccc(O)cc5)NC(=O)[C@@H]5CCCN5C4=O)C(=O)N[C@@H](Cc4ccccc4)C(=O)N[C@@H](C)C(=O)N[C@@H](CC(=O)O)C(=O)N4CCC[C@H]4C(=O)N[C@@H](Cc4ccc(O)cc4)C(=O)N[C@@H](CCCC)C(=O)N[C@H](C(=O)N[C@@H](C)C(N)=O)CSCCC6=O)nn3)nn1)C(=O)N1CCC[C@H]1C(=O)N[C@@H](Cc1ccc(O)cc1)C(=O)N2` is recorded as “increased” (NanoString; mouse MC-38 tumour, tumour; intravenous, 15 mg/kg, every 3 days x3).
`CN(C)C(=O)c1ccnc(N2Cc3cn(Cc4ccc(F)cc4F)nc3C2)n1` — result for “effect size d”: -1.69 (EAE clinical score; mouse EAE model; oral, 2.5 mg/kg daily from day 11, 264 h, unit not given; reference: vehicle).
`CN1CCCNC(=O)c2cccc(c2)C(=O)NCCCN(C)CCCNc2cccc3c2C(=O)c2cccc(c2C3=O)NCCC1`: tumour volume “decreased” (SAS xenograft, KSN/Slc nude mice; intraperitoneal, 3 µmol/kg every 2 days ×5).
`CC(=O)[O-].O.O.[O-]c1ccc(Br)cc1C=NCCN1CCOCC1.[Zn+2]`: “ferric reducing power” 56.4% (FRAP; 240 µM).
With `CC(C)c1cnc(-c2cc(Cl)ccc2F)cc1Nc1ccncc1C(=O)NC(CO)CO` the PSA decrease was 48.9% (human; 250 mg).
`C#CC[C@H](N)C(=O)O` has an inhibitory concentration of 5 mM (L-cysteine-induced relaxation; rat, isolated aortic rings; with: phenylephrine precontraction).
`CCCCCCCCCCCCCCCC(=O)NCCCC[C@H](N)C(=O)N[C@@H](CC(=O)O)C(=O)N[C@H](C(=O)N[C@@H](Cc1c[nH]cn1)C(=O)N[C@@H](Cc1ccccc1)C(=O)N[C@@H](CCCNC(=N)N)C(=O)N[C@H](C(=O)N[C@@H](Cc1ccccc1)C(=O)N[C@@H](CCCNC(=N)N)C(=O)N[C@@H](CO)C(=O)N[C@@H](Cc1c[nH]cn1)C(=O)N[C@@H](CO)C(=O)N[C@@H](CC(=O)O)C(=O)N[C@@H](Cc1ccc(O)cc1)C(=O)N[C@@H](CCCNC(=N)N)C(=O)N[C@@H](CCCNC(=N)N)C(=O)N[C@H](C(=O)O)[C@@H](C)CC)[C@@H](C)O)[C@@H](C)O` gave a serum ALT of 177 ± 43.7 IU/L (C57BL/6J mouse, MCD diet; intraperitoneal, 1.2 nmol/g, 3 weeks, 3 times weekly).
`COc1ccc(C2CC(c3ccc(C)cc3)=Nc3ccccc3S2)cc1OC` (centres unmarked) gave a blood glucose of 108 ± 4.75 mg/dL (rat, normal, overnight fasted; oral, 20 mg/kg, 120 min, oral glucose tolerance test, with: glucose 3 g/kg oral).
`COc1c2c(cc3oc(C)cc(=O)c13)O[C@H](C(C)(C)O[C@@H]1O[C@H](CO)[C@@H](O)[C@H](O)[C@H]1O)C2` — result for “hot plate latency”: 10.9 ± 1.47 s (analgesia; mouse; oral, 2 mg/kg, 1 h).
For `C=C(c1ncc(C(=O)O)cn1)c1cc2c(cc1C)C(C)(C)CCC2(C)C`, “log2 fold change” read 2.71 (RNA sequencing, item: Cga mRNA; rat, brain; dose not given, 24 h, single dose; reference: vehicle).
Under “duration of phospho-STAT5 suppression”, `C=CC(=O)Nc1cccc(-c2cnc3[nH]cc(C(=O)NC(C)(C)C)c3n2)c1` is recorded as 24 h (mouse, NK-S1 xenograft, tumour; ip, 50 mg/kg, up to).
`CC12CC(O)C3CC1(OC1OC(CO)C(O)C(O)C1O)C3(COC(=O)c1ccccc1)C(=O)O2` (centres unmarked) has a body temperature of 34.7 ± 0.5 °C (mice, reserpine-induced depression; 7 mg/kg, 7 days, 4 h after reserpine).
`C=C(c1cc(F)c(C(=O)O)c(F)c1)c1cc2c(cc1C)C(C)(C)CCC2(C)C` — result for “log2 fold change”: -0.88 (RNA sequencing, item: Ifit3 mRNA; rat, brain; dose not given, 24 h, single dose; reference: vehicle).
The Vmax of `O=C(O)C1OC(Oc2cccc(-c3nc(N4CCOCC4)c4oc5ncccc5c4n3)c2)C(O)C(O)C1O` (centres unmarked) is reported as 274 ± 8.32 pmol/min/mg (glucuronide formation; mouse liver microsomes).
Under “probe amount in tumour”, `CC1(C)C(=CC=C2CCCC(C=CC3=[N+](CCCCS(=O)(=O)[O-])c4ccc(S(=O)(=O)O)cc4C3(C)C)=C2Oc2ccc(S(=O)(=O)O)cc2)N(CCCCCC(=O)NCCCC[C@H](NC(=O)[C@@H](CCC(=O)O)NC(=O)[C@@H](CCC(=O)O)NC(=O)[C@@H](CCC(=O)O)NC(=O)CCCCCNC(=O)C2CCC(CNC(=O)CC[C@H](NC(=O)N[C@@H](CCC(=O)O)C(=O)O)C(=O)O)CC2)C(N)=O)c2ccc(S(=O)(=O)O)cc21` (some centres unmarked) is recorded as 7.5 ± 1.8 pmol (fluorescence molecular tomography; mouse, PC-3 flu tumour xenograft, PC-3 flu tumour; iv, 1 nmol, 4 h).
For `C[C@@H](O)[C@@H]1NC(=O)[C@H](CCCCN)NC(=O)[C@@H](Cc2ccc(NC(N)=O)cc2)NC(=O)[C@H](Cc2ccc(NC(=O)[C@@H]3CC(=O)NC(=O)N3)cc2)NC(=O)[C@H](NC(=O)[C@H](Cc2ccc(Cl)cc2)NC(=O)CN2CCN(CC(=O)O)CCN(CC(=O)O)CCN(CC(=O)O)CC2)CSSC[C@@H](C(=O)N[C@H](Cc2ccc(O)cc2)C(N)=O)NC1=O` [gallium-68 labelled], the SUVmean was 11 ± 9 (PET/CT; human neuroendocrine tumour patients, liver lesions; 60 min).
`Cc1cc(O)c(C=O)c2c1C(=O)Oc1c(CO)c(O)c3c(c1O2)C(O)OC3=O` (centres unmarked) — result for “corpora lutea per female”: 12.3 ± 0.82 (mating test; rat, male, streptozotocin-induced diabetes; 5 mg/kg).
For `N#Cc1cnc2cc(OCC3CCNCC3)c(F)cc2c1Nc1cc(F)c(OCc2cccc(Cl)n2)cc1Cl`, “liver to body weight ratio” read “increased” (C57BL/6J mice, partial hepatectomy; po, 50 mg/kg twice daily, 40 h after hepatectomy, 70% partial hepatectomy; reference: vehicle).
`CC1=CC(C)=[N+]2C1=Cc1ccc(CCC(=O)N3CCN(C(=O)c4cc(Cc5n[nH]c(=O)c6ccccc56)ccc4F)CC3)n1[B-]2(F)F`: “maximum radiant efficiency” 5e+08 (mice, orthotopic U87 glioblastoma, tumour-bearing brain; intravenous, 2.5 mg/kg, 1 h).
`N=C(N)NCCC[C@@H]1NC(=O)[C@H](CCCNC(=N)N)NC(=O)[C@H](CCCNC(=N)N)NC(=O)[C@H](Cc2ccc3ccccc3c2)NC(=O)[C@H](Cc2c[nH]c3ccccc23)NC(=O)[C@H](Cc2ccc3ccccc3c2)NC(=O)[C@H](CCCNC(=N)N)NC1=O` gave a calcein leakage of ~60% (bacterial mimic liposomes; 5 µg/mL, 60 min).
`CCc1nc(-c2ccc(-c3ccc(CCC(N)(CO)CO)cc3)cc2)co1` gave a Vmax of 1.11 ± 0.28 pmol/min (phosphorylation; human whole blood; 60 min, 37 °C, up to 100 µM).
For `CC(C)=CCCC(C)=CCc1cc(-c2coc3cc(OC4OC(C(=O)O)C(O)C(O)C4O)ccc3c2=O)ccc1O` (centres unmarked), the Vmax was 2560 ± 334 pmol/min/mg (glucuronidation, substrate; rat liver microsomes).

A few entries again:
`CC(=O)[O-].O.O.[O-]c1ccc(Br)cc1C=NCCN1CCOCC1.[Zn+2]`: “ferric reducing power” 56.4% (FRAP; 240 µM).
With `CC(C)c1cnc(-c2cc(Cl)ccc2F)cc1Nc1ccncc1C(=O)NC(CO)CO` the PSA decrease was 48.9% (human; 250 mg).
`C#CC[C@H](N)C(=O)O` has an inhibitory concentration of 5 mM (L-cysteine-induced relaxation; rat, isolated aortic rings; with: phenylephrine precontraction).
`CCCCCCCCCCCCCCCC(=O)NCCCC[C@H](N)C(=O)N[C@@H](CC(=O)O)C(=O)N[C@H](C(=O)N[C@@H](Cc1c[nH]cn1)C(=O)N[C@@H](Cc1ccccc1)C(=O)N[C@@H](CCCNC(=N)N)C(=O)N[C@H](C(=O)N[C@@H](Cc1ccccc1)C(=O)N[C@@H](CCCNC(=N)N)C(=O)N[C@@H](CO)C(=O)N[C@@H](Cc1c[nH]cn1)C(=O)N[C@@H](CO)C(=O)N[C@@H](CC(=O)O)C(=O)N[C@@H](Cc1ccc(O)cc1)C(=O)N[C@@H](CCCNC(=N)N)C(=O)N[C@@H](CCCNC(=N)N)C(=O)N[C@H](C(=O)O)[C@@H](C)CC)[C@@H](C)O)[C@@H](C)O` gave a serum ALT of 177 ± 43.7 IU/L (C57BL/6J mouse, MCD diet; intraperitoneal, 1.2 nmol/g, 3 weeks, 3 times weekly).
`COc1ccc(C2CC(c3ccc(C)cc3)=Nc3ccccc3S2)cc1OC` (centres unmarked) gave a blood glucose of 108 ± 4.75 mg/dL (rat, normal, overnight fasted; oral, 20 mg/kg, 120 min, oral glucose tolerance test, with: glucose 3 g/kg oral).
